Results of several laboratories.
± gives the spread as reported.
Target: Voltage-gated inwardly rectifying potassium channel KCNH2 (KCNH2, Homo sapiens, UniProt Q12809)
Chain of UniProt Q12809 (whole entry, looked up): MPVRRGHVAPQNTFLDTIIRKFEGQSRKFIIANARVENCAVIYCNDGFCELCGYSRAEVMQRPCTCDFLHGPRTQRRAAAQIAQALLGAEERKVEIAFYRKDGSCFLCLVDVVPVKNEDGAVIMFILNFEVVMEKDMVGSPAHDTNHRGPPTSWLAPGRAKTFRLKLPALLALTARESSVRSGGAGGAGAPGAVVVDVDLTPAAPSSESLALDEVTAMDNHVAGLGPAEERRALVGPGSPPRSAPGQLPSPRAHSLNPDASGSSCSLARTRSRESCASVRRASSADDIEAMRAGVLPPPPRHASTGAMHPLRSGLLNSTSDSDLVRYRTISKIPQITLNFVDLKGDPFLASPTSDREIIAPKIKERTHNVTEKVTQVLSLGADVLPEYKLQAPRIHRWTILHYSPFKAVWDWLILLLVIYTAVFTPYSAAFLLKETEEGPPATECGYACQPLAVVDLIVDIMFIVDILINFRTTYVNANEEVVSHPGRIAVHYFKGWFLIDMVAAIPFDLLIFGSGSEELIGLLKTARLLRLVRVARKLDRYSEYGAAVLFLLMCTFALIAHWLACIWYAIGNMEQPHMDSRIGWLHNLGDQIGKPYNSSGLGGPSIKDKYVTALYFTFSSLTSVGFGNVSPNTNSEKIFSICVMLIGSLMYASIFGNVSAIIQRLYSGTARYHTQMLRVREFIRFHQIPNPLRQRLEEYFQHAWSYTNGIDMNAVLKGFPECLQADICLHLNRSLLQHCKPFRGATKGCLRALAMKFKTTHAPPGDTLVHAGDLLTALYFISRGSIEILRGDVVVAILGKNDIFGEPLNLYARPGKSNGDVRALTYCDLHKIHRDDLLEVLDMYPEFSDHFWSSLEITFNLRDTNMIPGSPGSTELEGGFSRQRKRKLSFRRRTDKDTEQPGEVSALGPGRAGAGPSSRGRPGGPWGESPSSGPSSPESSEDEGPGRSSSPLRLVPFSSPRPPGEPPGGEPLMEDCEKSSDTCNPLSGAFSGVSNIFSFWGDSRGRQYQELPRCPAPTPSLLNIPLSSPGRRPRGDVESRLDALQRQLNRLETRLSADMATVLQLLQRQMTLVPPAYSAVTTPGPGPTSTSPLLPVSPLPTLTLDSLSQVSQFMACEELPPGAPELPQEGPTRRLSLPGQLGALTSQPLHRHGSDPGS

Compound	assay	system	conditions	quantity	value
NS(=O)(=O)NCC(F)(F)c1ccccc1F	ion current, inhibitor, patch clamp			IC50	> 30 µM
CCCc1cc2cc(-n3nc(C)c4c3CC(C)(C)CC4=O)cc(N[C@H]3CCOC3)c2c(=O)[nH]1	ligand displacement, FP			IC50	41.5 µM
CCN1/C(=C/C=C2\CCCC(/C=C/C3=[N+](CC)c4ccccc4C3(C)C)=C2NCCCCCCCCN2CCC(Nc3nc4ccccc4n3Cc3ccc(F)cc3)CC2)C(C)(C)c2ccccc21	ion current, inhibitor, patch clamp	CHO	pH 7.4	IC50	0.37 µM
COc1ccc(NC(=O)CN2c3cccc4cccc(c34)S2(=O)=O)cc1OCc1ccncc1	ion current, inhibitor			IC50	> 30 µM
Cc1cccc(C)c1NC(=O)CC(C)NCc1cccc2ccccc12 (stereo not drawn)	potassium current, inhibitor, patch clamp	tsA201 transfected with KCNH2	0.2% DMSO	lowest inhibitory concentration	> 0.1 µM
O=C(NCc1cccc(CN2CCCC2=O)c1)NCC(c1ccccc1)c1ccccc1	ion current, inhibitor			IC50	> 30 µM
CCC(=O)N(C)c1ccc(Cl)c(Cl)c1	ion current, inhibitor, patch clamp	HEK293	100 µM	inhibition	27.9%
Cc1cc(O)cc(O)c1C(=O)c1c2c3c(c(O)cc(C)c3oc1=O)C(=O)c1c(O)cc(O)cc1-2	potassium current, inhibitor	HEK293	5 µM, pH 7.4	inhibition	3.8 ± 4%
CCOc1ccc(NS(=O)(=O)c2ccc(C)c(C(=O)N3CCOC(c4ccccc4)C3)c2)cc1 (stereo not drawn)	ion current, inhibitor			IC50	> 30 µM

Repeated from above:
Compound	assay	system	conditions	quantity	value
COc1ccc(NC(=O)CN2c3cccc4cccc(c34)S2(=O)=O)cc1OCc1ccncc1	ion current, inhibitor			IC50	> 30 µM
